{"data": "Measured values from different studies", "note": "Numbered parts are unrelated; each lists some results of a single study. Several values in a cell are separate wells, animals, samples, runs or records.", "UniProt O15264, sequence (whole entry, looked up)": "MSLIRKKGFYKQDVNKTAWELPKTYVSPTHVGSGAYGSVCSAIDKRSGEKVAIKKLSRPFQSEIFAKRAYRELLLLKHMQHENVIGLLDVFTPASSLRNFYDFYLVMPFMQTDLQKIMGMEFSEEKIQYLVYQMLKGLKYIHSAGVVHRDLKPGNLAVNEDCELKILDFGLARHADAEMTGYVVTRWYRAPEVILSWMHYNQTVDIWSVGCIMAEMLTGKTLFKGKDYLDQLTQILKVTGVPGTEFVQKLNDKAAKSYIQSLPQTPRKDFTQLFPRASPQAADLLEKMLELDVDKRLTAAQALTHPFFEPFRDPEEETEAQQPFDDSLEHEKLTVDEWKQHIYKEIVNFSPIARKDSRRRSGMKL", "UniProt Q9H4B4, sequence (whole entry, looked up)": "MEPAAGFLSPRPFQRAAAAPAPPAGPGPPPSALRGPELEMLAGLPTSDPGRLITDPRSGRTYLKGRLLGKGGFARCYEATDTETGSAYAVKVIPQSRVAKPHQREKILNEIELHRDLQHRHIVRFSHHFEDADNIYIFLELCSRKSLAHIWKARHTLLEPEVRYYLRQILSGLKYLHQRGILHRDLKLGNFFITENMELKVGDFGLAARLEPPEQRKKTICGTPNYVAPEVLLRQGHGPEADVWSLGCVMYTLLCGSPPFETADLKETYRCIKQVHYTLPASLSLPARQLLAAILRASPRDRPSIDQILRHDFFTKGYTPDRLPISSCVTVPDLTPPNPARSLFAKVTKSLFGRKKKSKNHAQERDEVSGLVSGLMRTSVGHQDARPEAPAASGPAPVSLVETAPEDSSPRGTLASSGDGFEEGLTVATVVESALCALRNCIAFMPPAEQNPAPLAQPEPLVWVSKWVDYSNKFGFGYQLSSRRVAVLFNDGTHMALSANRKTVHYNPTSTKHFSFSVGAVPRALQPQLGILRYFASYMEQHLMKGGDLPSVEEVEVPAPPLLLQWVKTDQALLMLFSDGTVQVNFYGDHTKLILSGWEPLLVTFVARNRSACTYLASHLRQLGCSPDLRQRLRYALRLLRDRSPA", "UniProt Q9HAZ1, sequence (whole entry, looked up)": "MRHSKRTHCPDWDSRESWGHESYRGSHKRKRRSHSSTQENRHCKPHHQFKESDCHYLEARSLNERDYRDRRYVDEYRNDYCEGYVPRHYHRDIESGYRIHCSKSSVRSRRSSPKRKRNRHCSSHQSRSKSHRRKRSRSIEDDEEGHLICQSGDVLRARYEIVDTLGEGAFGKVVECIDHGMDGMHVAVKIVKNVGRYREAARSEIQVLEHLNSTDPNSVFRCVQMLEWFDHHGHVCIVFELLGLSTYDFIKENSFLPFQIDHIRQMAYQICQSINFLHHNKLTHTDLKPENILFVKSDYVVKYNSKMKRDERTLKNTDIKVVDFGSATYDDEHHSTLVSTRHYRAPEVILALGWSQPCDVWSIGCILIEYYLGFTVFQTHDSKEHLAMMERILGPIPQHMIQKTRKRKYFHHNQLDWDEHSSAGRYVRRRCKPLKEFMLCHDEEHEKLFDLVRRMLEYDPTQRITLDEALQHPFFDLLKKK", "UniProt P51955, sequence (whole entry, looked up)": "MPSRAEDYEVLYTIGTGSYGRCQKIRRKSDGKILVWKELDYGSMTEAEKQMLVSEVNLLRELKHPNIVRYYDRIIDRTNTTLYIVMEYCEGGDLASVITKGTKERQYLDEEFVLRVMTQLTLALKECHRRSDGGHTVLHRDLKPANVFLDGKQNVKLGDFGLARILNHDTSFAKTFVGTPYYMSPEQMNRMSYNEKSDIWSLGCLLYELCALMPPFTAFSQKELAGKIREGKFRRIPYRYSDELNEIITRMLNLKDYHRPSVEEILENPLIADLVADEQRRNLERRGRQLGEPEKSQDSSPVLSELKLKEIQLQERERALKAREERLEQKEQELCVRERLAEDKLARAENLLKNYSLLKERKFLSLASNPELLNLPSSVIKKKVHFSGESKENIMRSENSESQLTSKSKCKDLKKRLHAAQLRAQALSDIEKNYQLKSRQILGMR", "UniProt P09619, sequence (whole entry, looked up)": "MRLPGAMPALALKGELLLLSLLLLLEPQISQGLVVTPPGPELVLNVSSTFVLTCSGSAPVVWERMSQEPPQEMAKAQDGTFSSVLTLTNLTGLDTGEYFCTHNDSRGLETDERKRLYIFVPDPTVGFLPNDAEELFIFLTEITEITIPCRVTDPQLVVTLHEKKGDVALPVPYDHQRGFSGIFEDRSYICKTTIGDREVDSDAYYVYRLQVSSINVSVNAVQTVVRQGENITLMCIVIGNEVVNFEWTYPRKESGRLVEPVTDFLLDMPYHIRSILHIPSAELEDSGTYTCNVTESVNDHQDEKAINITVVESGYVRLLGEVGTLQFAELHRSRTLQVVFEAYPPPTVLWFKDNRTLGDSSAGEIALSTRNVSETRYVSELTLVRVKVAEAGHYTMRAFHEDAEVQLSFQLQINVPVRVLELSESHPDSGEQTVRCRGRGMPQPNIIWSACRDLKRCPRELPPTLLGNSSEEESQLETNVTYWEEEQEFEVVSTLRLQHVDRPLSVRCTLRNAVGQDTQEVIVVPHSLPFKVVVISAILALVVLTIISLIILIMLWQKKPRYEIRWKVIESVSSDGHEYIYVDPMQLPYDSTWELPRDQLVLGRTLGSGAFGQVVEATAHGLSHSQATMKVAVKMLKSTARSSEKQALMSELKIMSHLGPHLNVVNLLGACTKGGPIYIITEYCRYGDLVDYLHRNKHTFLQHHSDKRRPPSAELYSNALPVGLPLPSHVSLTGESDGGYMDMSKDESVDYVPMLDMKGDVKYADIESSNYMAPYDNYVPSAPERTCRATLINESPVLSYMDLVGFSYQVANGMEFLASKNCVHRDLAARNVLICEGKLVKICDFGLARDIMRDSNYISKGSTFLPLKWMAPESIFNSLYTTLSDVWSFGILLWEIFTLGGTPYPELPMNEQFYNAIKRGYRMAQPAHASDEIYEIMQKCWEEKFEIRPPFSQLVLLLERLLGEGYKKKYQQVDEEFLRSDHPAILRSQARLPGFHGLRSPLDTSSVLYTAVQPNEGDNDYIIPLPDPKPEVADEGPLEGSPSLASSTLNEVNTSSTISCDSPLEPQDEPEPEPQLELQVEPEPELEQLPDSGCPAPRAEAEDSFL", "UniProt P51812, sequence (whole entry, looked up)": "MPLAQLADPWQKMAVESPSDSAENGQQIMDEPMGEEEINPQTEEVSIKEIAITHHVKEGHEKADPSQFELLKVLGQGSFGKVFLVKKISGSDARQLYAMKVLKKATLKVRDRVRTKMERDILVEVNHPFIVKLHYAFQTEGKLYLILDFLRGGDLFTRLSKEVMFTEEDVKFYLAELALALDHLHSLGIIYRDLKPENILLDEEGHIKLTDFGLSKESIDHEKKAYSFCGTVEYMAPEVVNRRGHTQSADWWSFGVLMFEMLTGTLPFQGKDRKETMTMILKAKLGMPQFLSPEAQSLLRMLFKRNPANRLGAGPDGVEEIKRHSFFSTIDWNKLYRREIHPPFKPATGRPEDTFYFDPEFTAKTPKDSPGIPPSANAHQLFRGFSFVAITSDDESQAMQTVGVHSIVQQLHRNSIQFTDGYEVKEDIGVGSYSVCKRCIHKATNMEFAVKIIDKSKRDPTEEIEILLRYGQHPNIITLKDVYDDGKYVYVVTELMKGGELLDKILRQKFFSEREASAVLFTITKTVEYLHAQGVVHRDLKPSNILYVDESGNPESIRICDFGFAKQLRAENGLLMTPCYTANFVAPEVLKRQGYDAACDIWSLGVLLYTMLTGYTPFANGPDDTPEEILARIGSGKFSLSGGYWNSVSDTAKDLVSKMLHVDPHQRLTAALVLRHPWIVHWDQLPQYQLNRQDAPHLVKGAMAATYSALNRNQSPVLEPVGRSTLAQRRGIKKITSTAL", "UniProt Q8IU85, sequence (whole entry, looked up)": "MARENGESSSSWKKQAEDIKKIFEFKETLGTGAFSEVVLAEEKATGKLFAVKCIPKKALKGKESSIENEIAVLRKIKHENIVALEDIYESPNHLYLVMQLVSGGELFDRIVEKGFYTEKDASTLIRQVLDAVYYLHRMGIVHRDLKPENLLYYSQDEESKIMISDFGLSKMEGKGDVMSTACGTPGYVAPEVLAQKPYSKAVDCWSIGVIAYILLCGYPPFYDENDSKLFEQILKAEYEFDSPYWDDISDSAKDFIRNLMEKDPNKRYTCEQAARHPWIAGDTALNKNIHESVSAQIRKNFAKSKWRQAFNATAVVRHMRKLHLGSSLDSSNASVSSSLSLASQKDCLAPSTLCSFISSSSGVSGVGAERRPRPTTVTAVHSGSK", "UniProt P36897, sequence (whole entry, looked up)": "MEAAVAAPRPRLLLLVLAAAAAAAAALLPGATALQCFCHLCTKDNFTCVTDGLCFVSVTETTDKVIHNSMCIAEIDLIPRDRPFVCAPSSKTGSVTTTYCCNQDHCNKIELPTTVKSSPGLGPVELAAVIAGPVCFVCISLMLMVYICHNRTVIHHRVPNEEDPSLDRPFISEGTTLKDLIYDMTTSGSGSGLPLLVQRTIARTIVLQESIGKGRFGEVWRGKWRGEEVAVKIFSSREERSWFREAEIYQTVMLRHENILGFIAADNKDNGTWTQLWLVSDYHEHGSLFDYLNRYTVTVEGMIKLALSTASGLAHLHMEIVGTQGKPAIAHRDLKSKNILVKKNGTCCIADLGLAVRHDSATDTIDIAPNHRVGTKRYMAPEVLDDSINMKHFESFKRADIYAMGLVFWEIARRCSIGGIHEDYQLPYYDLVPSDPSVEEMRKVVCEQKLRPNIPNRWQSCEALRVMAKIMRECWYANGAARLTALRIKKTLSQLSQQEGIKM"}
{"data": "Series 1", "cell line": "mouse MPNST tumor cells", "method": "high-content immunofluorescence imaging", "refers to": "nuclear SOX9", "tested at": "10 µM", "time": "12 h", "notes": "mean of 2 replicates", "relative to": "DMSO control", "reading": "higher = more nuclear SOX9"}
{"SMILES": "CN1C2CCCC1CC(NC(=O)c1nn(C)c3ccccc13)C2 (stereo not drawn)", "nuclear SOX9 intensity": "103 % of DMSO"}
{"SMILES": "CC1CNc2c(cccc2S(=O)(=O)N[C@@H](CCCNC(=N)N)C(=O)N2CC[C@@H](C)C[C@@H]2C(=O)O)C1 (stereo partly drawn)", "nuclear SOX9 intensity": "93.6 % of DMSO and 97.7 % of DMSO and 96.6 % of DMSO"}
{"SMILES": "CC(C)(C(=O)c1cccnc1)c1cccnc1", "nuclear SOX9 intensity": "97.8 % of DMSO and 94 % of DMSO"}
{"SMILES": "CCc1nn(CCCN2CCN(c3cccc(Cl)c3)CC2)c(=O)n1CCOc1ccccc1", "nuclear SOX9 intensity": "116 % of DMSO"}
{"SMILES": "CN1CCc2c(c3ccccc3n2Cc2ccccc2)C1", "nuclear SOX9 intensity": "158 % of DMSO"}
{"SMILES": "Cc1ccc2c(c1CCC(=O)O)CC[C@@H](NS(=O)(=O)c1ccc(Cl)cc1)C2", "nuclear SOX9 intensity": "132 % of DMSO"}
{"SMILES": "CCCOc1ccc(C(=O)OCCN(CC)CC)cc1N", "nuclear SOX9 intensity": "94.7 % of DMSO"}
{"SMILES": "NC[C@@H]1O[C@H](O[C@H]2[C@@H](O)[C@H](O[C@@H]3[C@@H](O)[C@H](N)C[C@H](N)[C@H]3O[C@H]3O[C@H](CN)[C@@H](O)[C@H](O)[C@H]3N)O[C@@H]2CO)[C@H](N)[C@@H](O)[C@@H]1O", "nuclear SOX9 intensity": "99 % of DMSO"}
{"SMILES": "O=C(c1cc(S(=O)(=O)Nc2ccccc2F)c(F)cc1Cl)N1CCN2CCC[C@@H]2C1", "nuclear SOX9 intensity": "88.6 % of DMSO"}
{"SMILES": "N#Cc1cccc(C(=O)Nc2cc(-c3ccccc3)nn2-c2ccccc2)c1", "nuclear SOX9 intensity": "117 % of DMSO"}
{"SMILES": "OC(CCN1CCCC1)(c1ccccc1)C1CCCCC1 (stereo not drawn)", "nuclear SOX9 intensity": "132 % of DMSO"}
{"SMILES": "CCC(=O)[C@@]1(C)[C@H](C)C[C@H]2[C@@H]3CCC4=CC(=O)C=C[C@]4(C)[C@H]3[C@@H](O)C[C@@]21C", "nuclear SOX9 intensity": "77.9 % of DMSO"}
{"data": "Series 2", "target": "Cyclin-dependent kinase 4, with cyclin D3 (CDK4, Homo sapiens, UniProt P11802)", "read-out": "enzyme activity", "action": "inhibitor", "tested at": "0.5 µM", "relative to": "control", "UniProt P11802, sequence (whole entry, looked up)": "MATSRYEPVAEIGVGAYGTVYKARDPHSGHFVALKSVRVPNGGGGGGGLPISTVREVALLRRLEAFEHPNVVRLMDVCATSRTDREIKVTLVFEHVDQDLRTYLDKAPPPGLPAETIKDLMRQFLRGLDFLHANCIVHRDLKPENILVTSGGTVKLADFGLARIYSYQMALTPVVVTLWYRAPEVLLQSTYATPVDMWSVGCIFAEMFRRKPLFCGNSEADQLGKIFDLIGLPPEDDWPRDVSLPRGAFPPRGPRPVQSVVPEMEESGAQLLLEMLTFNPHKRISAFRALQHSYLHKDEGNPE"}
{"Compound": "O=C1NC(=O)/C(=C/c2ccc3nccnc3c2)S1", "remaining activity [%]": 93.9}
{"Compound": "Cc1ccc(NC(=O)c2ccc(CN3CCN(C)CC3)cc2)cc1Nc1nccc(-c2cccnc2)n1", "remaining activity [%]": 107}
{"Compound": "CC(=O)O/N=C1/C(c2c(O)[nH]c3cc(Br)ccc23)=Nc2ccccc21", "remaining activity [%]": 86.2}
{"Compound": "Cn1cnc2cc3c(Nc4cccc(Br)c4)ncnc3cc21", "remaining activity [%]": 95.9}
{"Compound": "CCOc1cc2ncnc(Nc3cccc(Br)c3)c2cc1OCC", "remaining activity [%]": 97.8}
{"data": "Series 3", "host": "human", "matrix": "microsomes or S9", "tested at": "2 µM", "time": "0.5 h"}
{"Structure (SMILES)": "O=C(Nc1ccncc1)c1nn(-c2ccc(F)cc2)c2c1CCc1ccccc1-2", "remaining compound": "75.8%"}
{"Structure (SMILES)": "Clc1ccc(OCCn2cnc(Cl)c2Cl)cc1", "remaining compound": "49.1%"}
{"Structure (SMILES)": "COC(=O)c1nc(C2CC(C(C)(C)C)=NO2)cc(N)c1Cl (stereo not drawn)", "remaining compound": "50.3%"}
{"Structure (SMILES)": "Oc1ccccc1O/C(=C/n1ccnc1)c1ccccc1", "remaining compound": "87.4%"}
{"Structure (SMILES)": "Cc1cc(C(C)(C)C)cc(C)c1CS(=O)(=O)CCn1cccn1", "remaining compound": "0.699%"}
{"Structure (SMILES)": "O=C1Nc2ccccc2C12Oc1ccccc1C1CC(c3cccnc3)=NN12 (stereo not drawn)", "remaining compound": "65.5%"}
{"Structure (SMILES)": "O=S(=O)(NCCn1c(-c2ccncc2)nc2ccccc21)c1ccc(Br)s1", "remaining compound": "2.68%"}
{"Structure (SMILES)": "COc1c(-c2ccc(F)c(F)c2)c(-n2cncn2)nc2ccc(F)cc12", "remaining compound": "49.9%"}
{"Structure (SMILES)": "CN(C)S(=O)(=O)c1cc2c(cc1N1CCN(c3ccccn3)CC1)Oc1ccccc1NC2=O", "remaining compound": "0.694%"}
{"Structure (SMILES)": "C=CC(C)(O)CC[C@]1(C)[C@H]2CC(=O)C=C(C)[C@]2(C)C[C@@H](O)[C@@H]1C (stereo partly drawn)", "remaining compound": "> 99.9%"}
{"data": "Series 4", "Compound": "Cc1cc(C)c(-n2ccn3nc(-c4cccnc4)cc23)cc1NC(=O)c1cc(C#N)cc(S(F)(F)(F)(F)F)c1", "tested at": "0.1 µM"}
{"target": "DYRK1A (Homo sapiens, UniProt Q13627)", "read-out": "cell-free assay", "method": "competition with immobilised ligand", "remaining binding [%]": 82.8}
{"target": "CLK4 (Homo sapiens, UniProt Q9HAZ1)", "read-out": "cell-free assay", "method": "competition with immobilised ligand", "remaining binding [%]": 93.3}
{"target": "PRPF4B (Homo sapiens, UniProt Q13523)", "read-out": "cell-free assay", "method": "competition with immobilised ligand", "remaining binding [%]": 80.6}
{"target": "WNK3 (Homo sapiens, UniProt Q9BYP7)", "read-out": "cell-free assay", "method": "competition with immobilised ligand", "remaining binding [%]": 61.9}
{"target": "CAMK1D (Homo sapiens, UniProt Q8IU85)", "read-out": "cell-free assay", "method": "competition with immobilised ligand", "remaining binding [%]": 71.6}
{"target": "TGFBR1 (Homo sapiens, UniProt P36897)", "read-out": "cell-free assay", "method": "competition with immobilised ligand", "remaining binding [%]": 98.2}
{"target": "Ribosomal protein S6 kinase alpha-3, N-terminal kinase domain (RPS6KA3, Homo sapiens, UniProt P51812)", "read-out": "cell-free assay", "method": "competition with immobilised ligand", "remaining binding [%]": 84.4}
{"target": "MAP3K1 (Homo sapiens, UniProt Q13233)", "read-out": "cell-free assay", "method": "competition with immobilised ligand", "remaining binding [%]": 78.3}
{"target": "MINK1 (Homo sapiens, UniProt Q8N4C8)", "read-out": "cell-free assay", "method": "competition with immobilised ligand", "remaining binding [%]": 88.9}
{"target": "KDR (Homo sapiens, UniProt P35968)", "read-out": "cell-free assay", "method": "competition with immobilised ligand", "remaining binding [%]": 76.2}
{"target": "PDGFRB (Homo sapiens, UniProt P09619)", "read-out": "cell-free assay", "method": "competition with immobilised ligand", "remaining binding [%]": 74.8}
{"target": "NEK2 (Homo sapiens, UniProt P51955)", "read-out": "cell-free assay", "method": "competition with immobilised ligand", "remaining binding [%]": 98.6}
{"target": "EGFR (Homo sapiens, UniProt P00533, del747-750/T751S)", "read-out": "cell-free assay", "method": "competition with immobilised ligand", "remaining binding [%]": 85.5}
{"target": "CDK4 (Homo sapiens, UniProt P11802)", "read-out": "cell-free assay", "method": "competition with immobilised ligand", "remaining binding [%]": 82.4}
{"target": "RIPK4 (Homo sapiens, UniProt P57078)", "read-out": "cell-free assay", "method": "competition with immobilised ligand", "remaining binding [%]": 62.9}
{"target": "MAPK13 (Homo sapiens, UniProt O15264)", "read-out": "cell-free assay", "method": "competition with immobilised ligand", "remaining binding [%]": 65.6}
{"target": "CDK13 (Homo sapiens, UniProt Q14004)", "read-out": "cell-free assay", "method": "competition with immobilised ligand", "remaining binding [%]": 59}
{"target": "STK10 (Homo sapiens, UniProt O94804)", "action": "binder", "method": "KINOMEscan competition binding", "relative to": "DMSO", "remaining binding [%]": 1.8}
{"target": "LRRK2 (Homo sapiens, UniProt Q5S007, G2019S)", "read-out": "cell-free assay", "method": "competition with immobilised ligand", "remaining binding [%]": 73.9}
{"target": "LCK (Homo sapiens, UniProt P06239)", "read-out": "cell-free assay", "method": "competition with immobilised ligand", "remaining binding [%]": 41.6}
{"target": "TSSK3 (Homo sapiens, UniProt Q96PN8)", "read-out": "cell-free assay", "method": "competition with immobilised ligand", "remaining binding [%]": 76.9}
{"target": "PLK3 (Homo sapiens, UniProt Q9H4B4)", "read-out": "cell-free assay", "method": "competition with immobilised ligand", "remaining binding [%]": 81.8}
{"target": "EGFR (Homo sapiens, UniProt P00533, L858R/T790M)", "read-out": "cell-free assay", "method": "competition with immobilised ligand", "remaining binding [%]": 100}
{"target": "TAOK2 (Homo sapiens, UniProt Q9UL54)", "read-out": "cell-free assay", "method": "competition with immobilised ligand", "remaining binding [%]": 48.2}
{"note": "Excerpt of the above (series 4):"}
{"target": "LRRK2 (Homo sapiens, UniProt Q5S007, G2019S)", "read-out": "cell-free assay", "method": "competition with immobilised ligand", "remaining binding [%]": 73.9}
{"target": "LCK (Homo sapiens, UniProt P06239)", "read-out": "cell-free assay", "method": "competition with immobilised ligand", "remaining binding [%]": 41.6}
{"target": "TSSK3 (Homo sapiens, UniProt Q96PN8)", "read-out": "cell-free assay", "method": "competition with immobilised ligand", "remaining binding [%]": 76.9}
{"target": "PLK3 (Homo sapiens, UniProt Q9H4B4)", "read-out": "cell-free assay", "method": "competition with immobilised ligand", "remaining binding [%]": 81.8}
